Results collected from several papers.
A part holds a random share of what one study measured. Positions count from the first letter of the parent shown.

Study 1
Target: CCND3, cyclin fold, Cln2 fusion (human)
Technique: yeast growth competition, sequencing
Sample: yeast
Setting: weak parent motif
Relative to: not given
Direction: higher = stronger binding
Parent: PKN2 docking peptide (human); VSAVRKLDFSDTM
`K6Q`: “normalised enrichment score” 0.431.
`D11F` — result for “normalised enrichment score”: 0.0974.
`L7Q`: “normalised enrichment score” 0.0622.
For `K6L`, “normalised enrichment score” read 0.311.
`K6I` — result for “normalised enrichment score”: 0.715.
Under “normalised enrichment score”, `R5S` is recorded as 0.0596.
For `D11L`, “normalised enrichment score” read 0.361.
`V4I` — result for “normalised enrichment score”: 1.61.
For `K6N`, “normalised enrichment score” read 0.246.
`D8K`: “normalised enrichment score” 0.577.
Under “normalised enrichment score”, `S10G` is recorded as 1.27.
For `A3W`, “normalised enrichment score” read -0.00566.
Under “normalised enrichment score”, `S2E` is recorded as -0.332.
`F9M` — result for “normalised enrichment score”: 0.239.

Study 2
Target: Ras GTPase-activating protein-binding protein 1, RRM domain (G3BP1, Homo sapiens, UniProt Q13283)
UniProt Q13283, sequence (whole entry, looked up): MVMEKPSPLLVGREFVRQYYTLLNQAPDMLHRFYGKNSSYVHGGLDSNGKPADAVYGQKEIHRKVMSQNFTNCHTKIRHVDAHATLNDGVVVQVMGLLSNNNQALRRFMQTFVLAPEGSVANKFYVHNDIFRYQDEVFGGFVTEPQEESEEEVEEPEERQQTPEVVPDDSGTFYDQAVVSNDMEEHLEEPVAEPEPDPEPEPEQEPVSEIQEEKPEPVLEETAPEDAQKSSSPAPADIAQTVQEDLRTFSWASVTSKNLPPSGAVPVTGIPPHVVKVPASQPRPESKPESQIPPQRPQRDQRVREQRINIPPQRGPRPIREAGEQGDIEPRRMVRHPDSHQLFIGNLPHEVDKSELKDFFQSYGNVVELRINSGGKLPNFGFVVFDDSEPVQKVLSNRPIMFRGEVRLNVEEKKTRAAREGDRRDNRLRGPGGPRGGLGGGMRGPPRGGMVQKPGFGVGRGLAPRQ
Technique: RNA Bind-n-Seq
Molecule type: RNA
Sample: in vitro
Concentration: 1 µM
Setting: whole 134-nt RNA, ends assumed
Added: 150 mM KCl
Relative to: input library
Direction: higher = stronger binding
With `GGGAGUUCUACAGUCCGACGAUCAGUCCUGUGCUACACAUCGUAUGUACCGAAUCGGGGUGGGGAAAGGGGAAAAAGGGGAAAGUAUUAUGUUACGCCGUUCGGAUCUGCACUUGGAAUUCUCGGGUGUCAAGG` the log2 enrichment was 0.646.
The log2 enrichment of `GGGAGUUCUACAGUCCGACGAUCUCAAGUCCUGUGCUACACAUCGUAUGUACCGAAUCGGAAAGGAAAGGGAAAGGGAAAGUAUUAUGUUACGCCGUUCGGAUCUGCACUUCCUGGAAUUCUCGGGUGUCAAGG` is reported as -0.219.
`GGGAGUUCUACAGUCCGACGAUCAGUCCUGUGCUACACAUCGUAUGUACCGAAUCGGCCCCGGGCCCCGGGGCCCCGGGGAAAGUAUUAUGUUACGCCGUUCGGAUCUGCACUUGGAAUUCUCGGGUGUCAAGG` has a log2 enrichment of -0.581.
`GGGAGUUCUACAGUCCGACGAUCAGUCCUGUGCUACACAUCGUAUGUACCGAAUCGGGGAAAAAGGGGUUUGGGGAGGGGAAAGUAUUAUGUUACGCCGUUCGGAUCUGCACUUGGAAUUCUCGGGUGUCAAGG` has a log2 enrichment of 1.39.
`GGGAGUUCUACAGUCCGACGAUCAAGUCCUGUGCUACACAUCGUAUGUACCGAAUCGGGGAAAGGGGAGGGGUUUGGGGAAAGUAUUAUGUUACGCCGUUCGGAUCUGCACUUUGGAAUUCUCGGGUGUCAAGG` gave a log2 enrichment of 0.879.
With `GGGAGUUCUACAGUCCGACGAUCUCCUGUGCUACACAUCGUAUGUACCGAAUCGGGAAAAAAAGGGAAAAAGGGUUUUUGGGAAAGUAUUAUGUUACGCCGUUCGGAUCUGCAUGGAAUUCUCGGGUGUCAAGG` the log2 enrichment was 0.1.
The log2 enrichment of `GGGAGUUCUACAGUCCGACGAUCCCUCAAGUCCUGUGCUACACAUCGUAUGUACCGAAUCGGGUGGUGGGGUGGGAAAGUAUUAUGUUACGCCGUUCGGAUCUGCACUUCCAGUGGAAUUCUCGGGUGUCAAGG` is reported as 0.259.
`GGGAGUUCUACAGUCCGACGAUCCCUGUGCUACACAUCGUAUGUACCGAAUCGGCCCCCCCGGGGCCCCCCCGGGCCCCCCCGGAAAGUAUUAUGUUACGCCGUUCGGAUCUGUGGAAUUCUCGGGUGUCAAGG` has a log2 enrichment of -0.616.
The log2 enrichment of `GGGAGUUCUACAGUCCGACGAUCCAAGUCCUGUGCUACACAUCGUAUGUACCGAAUCGGCCCGGGGCCCGGGGCCCGGGAAAGUAUUAUGUUACGCCGUUCGGAUCUGCACUUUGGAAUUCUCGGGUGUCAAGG` is reported as -1.18.

Study 3
Target: ABI1, truncated, D143A, DHFR fusion (Arabidopsis thaliana)
Technique: DHFR PCA, deep sequencing
Sample: yeast
Setting: methotrexate growth selection, single substitutions
Added: (+)-ABA 0 µM
Relative to: wild-type fitted maximum
Direction: higher = stronger binding
Parent: PYL1, truncated, DHFR fusion (Arabidopsis thaliana); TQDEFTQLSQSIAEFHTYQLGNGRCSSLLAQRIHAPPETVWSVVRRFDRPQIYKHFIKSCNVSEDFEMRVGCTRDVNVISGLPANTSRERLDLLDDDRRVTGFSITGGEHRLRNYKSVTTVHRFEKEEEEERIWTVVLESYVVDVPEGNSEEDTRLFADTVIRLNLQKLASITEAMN
`E89R`: “relative binding score” -1.34%.
Under “relative binding score”, `G71I` is recorded as -1.87%.
`Q2T`: “relative binding score” 21.3%.
`E152F` — result for “relative binding score”: -9.08%.
For `E131K`, “relative binding score” read 56.2%.
`D3F` — result for “relative binding score”: 40.1%.
`T106V` — result for “relative binding score”: 62.6%.
`N85R` — result for “relative binding score”: 47.6%.
For `S117Y`, “relative binding score” read -1.31%.
`I57Q`: “relative binding score” -3.02%.
`R98C` — result for “relative binding score”: -1.57%.
`E38R`: “relative binding score” 1.15%.
`I162L` — result for “relative binding score”: 4.86%.
For `A175W`, “relative binding score” read 1.04%.
`T135N` — result for “relative binding score”: -6.62%.
For `E89P`, “relative binding score” read 3.5%.

Study 4
Target: Centromere-binding protein 1, full length, His-tagged (CBF1, Saccharomyces cerevisiae, UniProt P17106, residues 1-351)
UniProt P17106, sequence (whole entry, looked up): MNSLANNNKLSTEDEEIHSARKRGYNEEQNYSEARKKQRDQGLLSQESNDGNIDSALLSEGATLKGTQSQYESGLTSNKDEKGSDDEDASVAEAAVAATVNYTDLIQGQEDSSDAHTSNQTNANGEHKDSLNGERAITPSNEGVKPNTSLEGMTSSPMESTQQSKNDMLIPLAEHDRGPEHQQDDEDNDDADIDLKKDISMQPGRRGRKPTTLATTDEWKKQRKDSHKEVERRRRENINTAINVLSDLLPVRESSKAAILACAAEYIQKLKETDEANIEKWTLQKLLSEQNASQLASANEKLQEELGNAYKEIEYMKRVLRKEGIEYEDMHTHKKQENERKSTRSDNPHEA
Technique: competition protein-binding microarray
Molecule type: double-stranded DNA, one strand shown
Sample: in vitro
Concentration: 2 µM
Setting: whole 60-bp probe, lowest competitor level
Added: Pho4 competitor, 0.05 µM
Direction: higher = stronger binding
The fluorescence intensity of `CGTCCTAGCGATTGAAAGGTGGGTGCCATGAGGAAGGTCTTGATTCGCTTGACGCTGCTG` is reported as 59.6 a.u.
`TTGAGCTACCCTTTGCACGTTCTTTCCAATATGCAGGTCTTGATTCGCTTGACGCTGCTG` gave a fluorescence intensity of 117 a.u.
The fluorescence intensity of `ATCCCCTCTGTAAGACACGTTGGTCCACTGTAGCTTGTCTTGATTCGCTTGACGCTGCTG` is reported as 81.6 a.u.
The fluorescence intensity of `ATTTCTTTTTTTCTACACGTTGGTCTGATGTCTCAGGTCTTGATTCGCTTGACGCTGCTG` is reported as 87.9 a.u.
For `CGTCCTAGTGATTGTTCGGTGGGTGCCATGAGGAAGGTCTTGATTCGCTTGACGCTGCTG`, the fluorescence intensity was 68.9 a.u.
With `GGAAGCATTTTCCATCACGTTATTCGGGGACACCCAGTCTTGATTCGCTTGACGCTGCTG` the fluorescence intensity was 481 a.u.
For `CCTTGGTTGACTGCAAACGTGTGGAAATACGGAAAGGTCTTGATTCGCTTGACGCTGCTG`, the fluorescence intensity was 91.9 a.u.
With `TGGGCTCACCCGCGGGTCGTGATGGCGATTCAGCAAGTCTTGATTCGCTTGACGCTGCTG` the fluorescence intensity was 67.8 a.u.
For `GCCTTTTCCATCGACCACGTTGACAAATACGGCATCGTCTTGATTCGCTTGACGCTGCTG`, the fluorescence intensity was 150 a.u.
`CGGGCTGCCCCGGGTCACGTGACTCGGACACCGCCCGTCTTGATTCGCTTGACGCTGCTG` has a fluorescence intensity of 35200 a.u.
With `CGGTACCCCAACCGTCACAATAAGTACTTGCGCCATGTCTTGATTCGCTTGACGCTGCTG` the fluorescence intensity was 60.3 a.u.
`CCATCAAGTGTTCGTCACGTTTTTGCCGCCGAACTCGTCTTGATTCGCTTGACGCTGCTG` has a fluorescence intensity of 850 a.u.
For `CGTCCTAGTGATTGCGTTGTGGGTGCCATGAGGAAGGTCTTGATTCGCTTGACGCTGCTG`, the fluorescence intensity was 82.1 a.u.
For `CTAACGAAGGTTTTTCACGTGGATTACAAGCCAAGTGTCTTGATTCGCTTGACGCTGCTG`, the fluorescence intensity was 541 a.u.
For `CTGGGCCCGGGACCCCACGTGGGACGCGCGAGGACCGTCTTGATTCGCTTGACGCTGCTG`, the fluorescence intensity was 504 a.u.
With `CGACATTCAGACCTACACGTACAAAACACGAATGCTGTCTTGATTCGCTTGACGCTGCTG` the fluorescence intensity was 87.5 a.u.
`CATACCCAACCTTTTCACGTGGTATAAGATATTTGTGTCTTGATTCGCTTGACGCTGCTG` gave a fluorescence intensity of 1180 a.u.
With `CATTTCTGTCCATGCCTCGTGCGGAAATGATTGAATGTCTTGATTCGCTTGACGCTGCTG` the fluorescence intensity was 161 a.u.
`TAATAGCTTGAAAAGCACGTGAAGGGCTTGAAGCGGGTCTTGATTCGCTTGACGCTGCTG` has a fluorescence intensity of 1350 a.u.

Some of these lines once more (study 1):
Under “normalised enrichment score”, `S2E` is recorded as -0.332.
`V4I` — result for “normalised enrichment score”: 1.61.
`F9M` — result for “normalised enrichment score”: 0.239.
